Experimental data from different studies.
Every numbered part comes from another study and shows a few of its results, in no order.

Set 1
Target: Centromere-binding protein 1, full length, His-tagged (CBF1, Saccharomyces cerevisiae, UniProt P17106, residues 1-351)
Sequence of UniProt P17106 (whole entry, looked up): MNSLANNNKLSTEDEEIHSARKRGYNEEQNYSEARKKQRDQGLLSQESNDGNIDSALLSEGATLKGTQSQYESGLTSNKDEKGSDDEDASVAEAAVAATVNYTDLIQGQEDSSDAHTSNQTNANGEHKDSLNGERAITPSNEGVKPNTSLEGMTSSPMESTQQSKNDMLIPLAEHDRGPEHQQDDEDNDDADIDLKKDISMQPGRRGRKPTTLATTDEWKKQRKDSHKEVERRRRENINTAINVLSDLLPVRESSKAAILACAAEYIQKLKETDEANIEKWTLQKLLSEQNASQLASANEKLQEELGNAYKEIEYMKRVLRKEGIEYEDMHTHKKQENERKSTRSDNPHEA
Method: competition protein-binding microarray
Molecule type: double-stranded DNA, one strand shown
Sample: in vitro
Concentration: 2 µM
Notes: whole 60-bp probe, lowest competitor level
Together with: Pho4 competitor, 0.05 µM
Reading: higher = stronger binding
All sequences stand within: … GTCTTGATTCGCTTGACGCTGCTG
Oligonucleotide	fluorescence intensity
AAAGCGGTAATTTGCCATGTGGGTGCAGATATCTAT	109 a.u.
TTGTAAGGTGCAATGCACATGAGTGATTGTTAAAAA	105 a.u.
CAGCAGCCTTGCCATCACGCTTAGCTTGAATGATGT	86.4 a.u.
CTAACGAAGGTTTGTGGTGTGGGTGACAAGCCAAGT	75.7 a.u.
CTAACGAAGGTTTGAACTGTGGGTGACAAGCCAAGT	64.2 a.u.
TGCGCAACAACTTGAAACGTGGGTGTATGTCTAGAA	99.8 a.u.
AAGTCCTGGCACTTGCATGTGGTTTCGTAGAAGGTA	81.5 a.u.

Set 2
Target: RNA binding protein fox-1 homolog 2, RRM domain, GST-SBP tag (RBFOX2, Homo sapiens, UniProt O43251-10, residues 100-194)
Method: RNA Bind-n-Seq
Molecule type: RNA
Sample: in vitro
Concentration: 365 nM
Notes: natural RNA segment, single round, ends assumed
Reference: no-protein control
Reading: higher = stronger binding
All sequences stand within: GGGAGUUCUACAGUCCGACGAUC … UGGAAUUCUCGGGUGCCAA
Residues (chain): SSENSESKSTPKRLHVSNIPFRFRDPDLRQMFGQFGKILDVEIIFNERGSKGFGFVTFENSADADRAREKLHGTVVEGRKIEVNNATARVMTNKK
Oligonucleotide	RBNS enrichment (R)
CCUUUAAAACUAAUCUCAGAAAAAUUUUUGGUGCCCAUGCAGCUGUAGUUGUUCACUGCUUUCCUGGAUGGAUGGGACUCUUAUGUCAUAACUUCUGUUACUCCUUUGGC	0.361
AACCAUAGGCCUGAAGUUCACAUUGGGUCUUUAAAUCUUUUAGAUAUAUACUGGUCAUUUCAGAAAAUUCUUCAUAGUGGUAUUGGCCUUAUAUUUAACUUUUUUUUUAU	0.593
CCUAAGCCGUUUGUACCUUAGUUUUAGCGUUCGGCCUCACCUAGCAAUCAAGGGCCCGUUUGGAGAAGCAGAAAUGAUUCCCUCCAGUGCCCUGUCUACCUUCCCCAGGC	0.254
UUAGUUGUAGCUGCCAUGCUCAGAAUUGCCUUUUGAGAGCUGAAGCAAGGUGCUUACUGUCACCUGAUGCCAUACACAUGGUCCCAGGCCCACACCCGGGGGGCCUCUGU	0.494
AUGUAUAAUACUAUUAAAAUAUCCCAUGCUUUGAUCAGGUGGUACAUCAAUAAAAUUUUAAAAAGUAUAGCUGUUUCUAAUGUGUAGUAAUUUAAAAAACAUAUAUCAAG	0.763

Set 3
Target: human cyclin B2
Observed: peptide binding
Method: yeast competitive growth sequencing
Molecule type: peptide
Organism: Saccharomyces cerevisiae
Strain: cyclin B2-Cln2 fusion
Concentration: concentration not given
Notes: peptide tiling library
Reading: direction not given
Molecule	binding enrichment score
AEHPKPSACRNLFGPV	-0.106
VEEEFFALRKRTPSAG	0.832
RSLKLDGLLEEN	0.273
IQKKLRFEDTLEFVGF	0.972
SSEVARHLLFQSHM	0.789

Other studies, line by line
Molecule	target	test	test system	conditions	scale	endpoint	result
PhoQ, residues 284 288 289 292 302 303 AEGLLW	PhoP, residues 12 14 15 18 19 NFCKL (Escherichia coli, UniProt P23836)	Sort-seq, measured: YFP reporter	E. coli	PhoQ-PhoP variant library, together with: 10 µM Mg2+	reference: high Mg2+ state, higher = stronger signaling	fold induction	0.755

For quick reference, copied from above (set 2):
Oligonucleotide	RBNS enrichment (R)
CCUAAGCCGUUUGUACCUUAGUUUUAGCGUUCGGCCUCACCUAGCAAUCAAGGGCCCGUUUGGAGAAGCAGAAAUGAUUCCCUCCAGUGCCCUGUCUACCUUCCCCAGGC	0.254
UUAGUUGUAGCUGCCAUGCUCAGAAUUGCCUUUUGAGAGCUGAAGCAAGGUGCUUACUGUCACCUGAUGCCAUACACAUGGUCCCAGGCCCACACCCGGGGGGCCUCUGU	0.494
